Assay results from different studies.
± marks the error that the study gave.

Cc1ccc(-c2nc(C)c(CSc3ccc(OCC(=O)O)c(C)c3)s2)cc1 — CC50 (HEK293T; 18 h): > 80 µM
CC(C)(C)Nc1c(-c2ccc3c(c2)CN(C2CCC(=O)NC2=O)C3=O)nc2ccccn12 (stereo not drawn) — EC50 (MOLT-4; cell viability, CellTiter-Glo; 72 h): 0.012 µM
Cc1cc(SCc2sc(-c3ccc(C(=O)NCCN(C)C)cc3)nc2C)ccc1OCC(=O)O — CC50 (HEK293T; 18 h): not toxic
CC(C)(C(=O)/C=C/c1ccc(O)c(OC(F)(F)F)c1)C(=O)/C=C/c1ccc(O)c(OC(F)(F)F)c1 — viability (SH-SY5Y; MTT; 0.9 µM, 24 h): 94.1 ± 2.2%
Cc1cc(SCc2sc(-c3cc(F)c(F)c(F)c3)nc2C)ccc1OCC(=O)O — CC50 (HEK293T; 18 h): > 100 µM
COC(=O)CC(C(=O)/C=C/c1ccc(O)c(OC(F)(F)F)c1)C(=O)/C=C/c1ccc(O)c(OC(F)(F)F)c1 — viability (SH-SY5Y; MTT; 0.9 µM, 24 h): 92.9 ± 1.7%
CC(=O)Nc1ccc(NC(=O)C(C)Sc2nnc(Nc3ccccc3F)s2)cc1 (stereo not drawn) — concentration reducing viability (Jurkat; MTS): ≥ 30 µM
Cc1ccccc1OCCCSCc1nc2ccccc2[nH]1 — IC50 (SW620-GFP tumour organoids; cytotoxicity, 3D CellTiter-Glo; 72 h): 29.7 µM
COc1cc([C@@H]2c3cc4c(cc3[C@H](CC(C)C)[C@H]3COC(=O)[C@H]23)OCO4)cc(OC)c1OC — CC50 (mouse splenocytes uninfected; Alamar Blue; 48 h): 16.4 ± 1.7 µM
CCOc1ccccc1Nc1nnc(SCC(=O)Nc2cc(F)ccc2F)s1 — IC50 (HS27; cytotoxicity): > 100 µM
COc1cc([C@@H]2c3cc4c(cc3[C@@H](CC(C)(C)O)[C@H]3COC(=O)[C@H]23)OCO4)cc(OC)c1OC — CC50 (mouse splenocytes uninfected; Alamar Blue; 48 h): 57.1 ± 2.5 µM
COCOc1ccc(/C=C/C(=O)C(CCC(=O)OC)C(=O)/C=C/c2ccc(OCOC)c(OC(F)(F)F)c2)cc1OC(F)(F)F — viability (SH-SY5Y; MTT; 0.9 µM, 24 h): 96.7 ± 1.7%
COc1cccc(-c2nc(C)c(CSc3ccc(OCC(=O)O)c(C)c3)s2)c1 — CC50 (HEK293T; 18 h): > 80 µM
COC(=O)[C@@H]1C(c2nc3ccccc3o2)=Cc2cc3c(cc2[C@H]1c1cc(OC)c(OC)c(OC)c1)OCO3 — CC50 (HepG2; Alamar Blue; 48 h): 8.8 ± 0.3 µM
Cc1cc(SCc2sc(-c3ccccc3F)nc2C)ccc1OCC(=O)O — CC50 (HEK293T; 18 h): > 80 µM
CCOC(=O)C(C(=O)/C=C/c1ccc(O)c(OC(F)(F)F)c1)C(=O)/C=C/c1ccc(O)c(OC(F)(F)F)c1 — viability (SH-SY5Y; MTT; 0.9 µM, 24 h): 91.6 ± 2.3%
Cc1cc(SCc2sc(-c3cc4ccccc4[nH]3)nc2C)ccc1OCC(=O)O — CC50 (HEK293T; 18 h): > 50 µM
CCn1nccc1N=CC1=Cc2cc3c(cc2[C@@H](c2cc(OC)c(OC)c(OC)c2)[C@@H]1C(=O)OC)OCO3 — CC50 (mouse splenocytes uninfected; Alamar Blue; 48 h): 8.8 ± 0.5 µM
CC(C)(C)OC(=O)CCC(C(=O)/C=C/c1ccc(O)c(OC(F)(F)F)c1)C(=O)/C=C/c1ccc(O)c(OC(F)(F)F)c1 — viability (SH-SY5Y; MTT; 0.9 µM, 24 h): 84.5 ± 1.7%
CCOc1ccc(S(=O)(=O)NC(=O)Cc2ccc(I)cc2)cc1Br — recovery B-A (MDCKII-MDR1; time not given): 97.5%
NC(=O)c1ccc(-n2cccc2Cc2ccccc2F)cc1N[C@H]1CC[C@H](O)CC1 — viability (PC-3 MM-2; 25 µM, 72 h): > 95%
COC(=O)[C@@H]1C(C=Nc2cncnc2NC(C)=O)=Cc2cc3c(cc2[C@H]1c1cc(OC)c(OC)c(OC)c1)OCO3 — CC50 (HepG2; Alamar Blue; 48 h): 1.5 ± 0.1 µM
Cc1cc(SCc2sc(-c3cccnc3)nc2C)ccc1OCC(=O)O — CC50 (HEK293T; 18 h): > 100 µM
COc1cccc(-c2cc(-n3nncc3-c3ccc(C(F)(F)F)cc3)ccc2OC)c1 — efflux ratio (Caco-2): 0.104 ± 0.02
COc1cc([C@@H]2c3cc4c(cc3C=C(C=O)[C@H]2C(=O)OCc2ccc(CBr)cc2)OCO4)cc(OC)c1OC — CC50 (HepG2; Alamar Blue; 48 h): 18.5 ± 0.7 µM
CC(C(=O)/C=C/c1ccc(O)c(OC(F)(F)F)c1)C(=O)/C=C/c1ccc(O)c(OC(F)(F)F)c1 — viability (SH-SY5Y; MTT; 0.9 µM, 24 h): 97.1 ± 6.7%
COc1cc([C@@H]2c3cc4c(cc3[C@@H](C=C(C)C)[C@H]3COC(=O)[C@H]23)OCO4)cc(OC)c1OC — CC50 (mouse splenocytes uninfected; Alamar Blue; 48 h): 1.7 ± 0.2 µM
Cc1nc(-c2ccc(C(F)(F)F)cc2)sc1COc1ccc(CCC(=O)O)cc1 — CC50 (HEK293T; 18 h): > 100 µM
COc1ccc(CC(=O)OCc2ccc(-n3cccn3)cc2)cc1F — viability (Jurkat; MTS; up to 100 µM): > 90%
O=C(/C=C/c1ccc(O)c(OC(F)(F)F)c1)C(CCCOC1CCCCO1)C(=O)/C=C/c1ccc(O)c(OC(F)(F)F)c1 (stereo not drawn) — viability (SH-SY5Y; MTT; 0.9 µM, 24 h): 97.6 ± 1.6%
O=C(O)c1ccc(-c2ccc([N+](=O)[O-])cc2Cl)o1 — IC50 (MRC-5; cell viability; 96 h): > 100 µM
CCOC(=O)CCC(C(=O)/C=C/c1ccc(O)c(OC(F)(F)F)c1)C(=O)/C=C/c1ccc(O)c(OC(F)(F)F)c1 — viability (SH-SY5Y; MTT; 0.9 µM, 24 h): 96.2 ± 2.9%
COC(=O)[C@@H]1C(C=Nc2ccccc2O)=Cc2cc3c(cc2[C@H]1c1cc(OC)c(OC)c(OC)c1)OCO3 — CC50 (HepG2; Alamar Blue; 48 h): 1.1 µM
